Results pooled from the literature.
Compare with care: the assays were run in different laboratories. Several values in a cell are separate wells, animals, samples, runs or records. ± gives the spread as reported.

SMILES	assay	system	setting	endpoint	value
CC(C)(C)n1ncc2c(=O)n(Cc3cccc(F)c3)c(NCc3ccc(F)cn3)nc21	–	human plasma	–	plasma protein binding	99%
OB1c2sccc2C=NN1Cc1ccccc1	HPLC	human plasma	400 µM, 9 h, 37 °C	plasma stability	stable
Cc1cccc(Cn2ncc3c4cc(F)c(CN(C)C)cc4n(C)c3c2=O)n1	–	Dutch-belted rabbit, plasma	intravitreal, 100 µM vitreous, 7.00 days	plasma concentration	2.19 ng/mL
COc1ccc2c(c1)CN(C(=O)CCN1CCC(Cc3ccccc3)CC1)CCS2	–	paroxysmal atrial fibrillation patients, plasma	oral, 540 mg, 10 min	plasma concentration	75.1 ± 37.9 ng/mL
C[C@@H](CO)NC(=O)c1cc(-c2ccc(Cl)cc2)nn(-c2cnn(C)c2)c1=O	–	human plasma	up to 2 h, 37 °C	plasma stability	stable
C=C[C@]1(C)C[C@@H](OC(=O)CSc2ccc(NC(=O)c3ccco3)cc2)[C@]2(C)[C@H](C)CC[C@]3(CCC(=O)[C@H]32)[C@@H](C)[C@@H]1O	–	Mycoplasma gallisepticum-infected chickens, plasma	intramuscular, 40 mg/kg, 0.083 h	plasma concentration	4080 ng/mL and 3960 ng/mL and 4800 ng/mL and 4680 ng/mL and 3570 ng/mL and 3470 ng/mL and 5040 ng/mL
COc1ccc2cc3[n+](cc2c1OCCCOC(=O)c1cscn1)CCc1cc2c(cc1-3)OCO2	–	hyperlipidemic hamster	dose not given, 3 weeks	plasma AST reduction	40.5%
CC(=O)N[C@H](CC(=O)O)C(=O)N[C@H](Cc1c[nH]c2ccccc12)C(=O)N[C@H](Cc1ccccc1)C(=O)N[C@H](CCCCN)C(=O)N[C@H](C)C(=O)N[C@H](Cc1ccccc1)C(=O)N[C@H](Cc1ccc(O)cc1)C(=O)N[C@H](CC(=O)O)C(=O)N[C@H](CCCCN)C(=O)N[C@@H](C(=O)N[C@H](C)C(=O)N[C@H](CCC(=O)O)C(=O)N[C@H](CCCCN)C(=O)N[C@H](Cc1ccccc1)C(=O)N[C@H](CCCCN)C(=O)N[C@H](CCC(=O)O)C(=O)N[C@H](C)C(=O)N[C@H](Cc1ccccc1)C(N)=O)C(C)C	–	human, plasma	oral, 500 mg daily, 2 h post-dose, day 1	plasma concentration	222 ng/mL

For quick reference, copied from above:
SMILES	assay	system	setting	endpoint	value
CC(=O)N[C@H](CC(=O)O)C(=O)N[C@H](Cc1c[nH]c2ccccc12)C(=O)N[C@H](Cc1ccccc1)C(=O)N[C@H](CCCCN)C(=O)N[C@H](C)C(=O)N[C@H](Cc1ccccc1)C(=O)N[C@H](Cc1ccc(O)cc1)C(=O)N[C@H](CC(=O)O)C(=O)N[C@H](CCCCN)C(=O)N[C@@H](C(=O)N[C@H](C)C(=O)N[C@H](CCC(=O)O)C(=O)N[C@H](CCCCN)C(=O)N[C@H](Cc1ccccc1)C(=O)N[C@H](CCCCN)C(=O)N[C@H](CCC(=O)O)C(=O)N[C@H](C)C(=O)N[C@H](Cc1ccccc1)C(N)=O)C(C)C	–	human, plasma	oral, 500 mg daily, 2 h post-dose, day 1	plasma concentration	222 ng/mL
